Measured values from different studies.
Several values in a cell are separate wells, animals, samples, runs or records. ± marks the error that the study gave. In brackets after ≈: the same amount, converted by molar mass.

| Structure (SMILES) | organism | assay | test system | setting | how to read | measurement | value |
| --- | --- | --- | --- | --- | --- | --- | --- |
| O=c1[nH]c2ncsc2c(=O)n1O | Digitaria adscendens | glasshouse pot | – | 1500 g/ha, 21 days, pre-emergence | – | inhibition | 2.3% |
| O=C(O[C@@H]1O[C@@H]2COC(=O)c3cc(O)c(O)c(O)c3-c3c(cc(O)c(O)c3O)C(=O)O[C@H]([C@H]1O)[C@@H]2O)c1cc(O)c(O)c(O)c1 | Streptococcus mutans | – | – | MIC, first 15 min, added: glucose 1% | – | initial rate of glycolytic pH drop | 0.031 pH units/min |
| CCCN1CCCC(c2ccc(Nc3nc(Nc4cc(F)ccc4C(N)=O)c4cc[nH]c4n3)c(OC)c2)C1 (stereo not drawn) | Trypanosoma brucei | – | – | unit not given | relative to: pEC50 T. brucei minus pTC50 HepG2 | selectivity | 1.7 |
| N=C(N)c1ccc(OCc2ccccc2COc2ccc(C(=N)N)cc2)cc1 | Escherichia coli | outer membrane permeabilization | BW25113 | 60 min, added: NPN 0.01 mM | – | concentration for maximal NPN uptake | 3.1 µg/mL |
| COc1cc(Nc2ncc3c(C)nc(-c4cccc(C(F)(F)F)c4)n3n2)cc(OC)c1OC | Trypanosoma brucei | – | – | unit not given | relative to: pEC50 T. brucei minus pTC50 HepG2 | selectivity | 2.5 |
| Nc1nc(-c2ccccc2)nc2[nH]nc(Nc3ccc(C(F)(F)F)cc3)c12 | coxsackievirus B3 | – | 31-1-93, NMRI mice, CVB3 chronic myocarditis | oral, 100 mg/kg twice daily, day 1, dosed days 0 to 6, score scale 0 to 7 | direction not given | clinical score | 0 |
| C[n+]1cc(NC(=O)c2ccc3ccc4ccc(C(=O)Nc5cc6ccccc6[n+](C)c5)nc4c3n2)cc2ccccc21 | Trypanosoma brucei | RNA-seq | Lister 427 bloodstream form | 2 × EC50, 4 h, log2 FC 1, FDR 0.05 | relative to: untreated | downregulated genes | 155 genes |
| O=C1OC[C@H]2OC(O)[C@H](O)[C@@H](O)[C@@H]2OC(=O)c2cc(O)c(O)c(O)c2-c2c(O)c(O)c3oc(=O)c4c(c(O)c(O)c5oc(=O)c2c3c54)-c2c1cc(O)c(O)c2O (mixture of isomers) | Streptococcus mutans | broth microdilution | – | – | – | MBC/MIC ratio | 2 |
| CCCCCCCCCC(=O)N[C@@H](Cc1c[nH]c2ccccc12)C(=O)N[C@H](CC(N)=O)C(=O)N[C@@H](CC(=O)O)C(=O)N[C@@H]1C(=O)NCC(=O)N[C@@H](CCCN)C(=O)N[C@@H](CC(=O)O)C(=O)N[C@H](C)C(=O)N[C@@H](CC(=O)O)C(=O)NCC(=O)N[C@H](CO)C(=O)N[C@@H]([C@H](C)CC(=O)O)C(=O)N[C@@H](CC(=O)c2ccccc2N)C(=O)O[C@@H]1C | Staphylococcus aureus | – | SH1000 | added: phosphatidylcholine, molar ratio 0.5 | – | MIC | 1 µg/mL |
| N#Cc1cccc(Nc2nccc(-c3cnn4ncccc34)n2)c1 | Trypanosoma brucei | – | – | unit not given | relative to: pEC50 T. brucei minus pTC50 HepG2 | selectivity | > 4.1 |
| COc1ccc2c(-c3nc(-c4c(C)[nH]c5ccc(OC)cc45)cs3)c[nH]c2c1 | Human papillomavirus 16 | viral genome amplification | differentiated W12E | – | – | IC50 | ~1 µM |
| [H]/N=C(\N/C(=N/[H])NCCCCCCNC(=N)NC(=N)Nc1ccc(Cl)cc1)Nc1ccc(Cl)cc1 | Streptococcus mutans | glycolytic acid production | – | MIC, first 15 min, 0.25 h, added: glucose 1% | – | initial rate of pH drop | 0.012 pH unit/min |
| COC(=O)[C@@H](NCc1cc2ccccc2nc1OCc1ccccc1)C(C)C | Pseudomonas aeruginosa | – | – | 64 µg/mL, added: pentamidine 50 µM | relative to: control | growth | 91.7% |
| CO[C@H]1/C=C/O[C@@]2(C)Oc3c(C)c(O)c4c(c3C2=O)C2=NC3(CCN(CC(C)C)CC3)NC2=C(NC(=O)/C(C)=C\C=C\[C@H](C)[C@H](O)[C@@H](C)[C@@H](O)[C@@H](C)[C@H](OC(C)=O)[C@@H]1C)C4=O | Mycobacteroides abscessus | bacterial growth | subsp. massiliense 097 clinical isolate | rough, slow grower | – | IC90 | 5.99 µM |
| COc1ccc(OC)c(Nc2nc3nonc3nc2N2CCCC(C)C2)c1 (stereo not drawn) | Mus musculus | gene silencing, high-content imaging | LDR reporter GFP cells | retest run 1 | – | maximal activity | 13% |
| CC1(C)OC[C@@]2(C)[C@H]3CC[C@@H]4CN(Cc5ccc(O)cc5)[C@@H](C5=CCOC5=O)C[C@H]4[C@]3(C)CC[C@H]2O1 | Human coronavirus 229E | cytopathic effect | MRC5 | 25 µM, corrected for cytotoxicity | – | inhibition | 40% |
| COc1ccc2c(c1)c1ccc3c(c1n2C)C(=O)C=CC3=O | Mus musculus | gene silencing, high-content imaging | LDR reporter GFP cells | retest run 1 | – | maximal activity | 83% |
| C=CC[C@@H]1c2ccc(OC)c(OC)c2CN2CCc3cc4c(cc3[C@H]12)OCO4 | Staphylococcus aureus | – | P2rx7+/+ mice, skin wound infection | dose not given, day 2 | relative to: day 0 | relative wound size | 0.63 and 0.62 and 0.86 and 0.78 and 1.15 |
| COC[C@H]1O[C@@H]2O[C@@H]3[C@@H](OC)[C@@H](OC)[C@@H](O[C@@H]4[C@@H](OC)[C@@H](OC)[C@@H](O[C@@H]5[C@@H](OC)[C@@H](OC)[C@@H](O[C@@H]6[C@@H](OC)[C@@H](OC)[C@@H](O[C@@H]7[C@@H](OC)[C@@H](OC)[C@@H](O[C@@H]1[C@@H](OC)[C@H]2OC)O[C@@H]7COC)O[C@@H]6COC)O[C@@H]5COC)O[C@@H]4COC)O[C@@H]3COC | Escherichia coli | LuxR reporter, agonist | DH5α sensor strain | 10 µM | – | bioluminescence | 818 ± 34 RLU |
| O[C@H]1[C@H]2c3cc4c(cc3CN3CCC(=C[C@@H]1O)[C@H]23)OCO4 | Mus musculus | gene silencing, high-content imaging | LDR reporter GFP cells | retest run 2 | – | maximal activity | 68% |
| CC1=C(C(=O)Nc2ccc3[nH]ncc3c2)C(c2ccc(F)cc2)NC(c2ccc(C(F)(F)F)nc2)=N1 (stereo not drawn) | Trypanosoma brucei | – | – | unit not given | relative to: pEC50 T. brucei minus pTC50 HepG2 | selectivity | > 1.3 |
| C[C@@]12COCO[C@@H]1CC[C@]1(C)[C@@H]2CC[C@@H]2CN(Cc3ccco3)[C@@H](C3=CCOC3=O)C[C@H]21 | Human coronavirus 229E | cytopathic effect | MRC5 | 25 µM, corrected for cytotoxicity | – | inhibition | 54.8% |
| COc1ccc(Nc2nc3c(S(=O)(=O)c4ccccc4)nnn3c3ccc(Cl)cc23)cc1 | Mus musculus | gene silencing, high-content imaging | LDR reporter GFP cells | retest run 2 | – | maximal activity | 36% |
| C[C@@H]1O[C@@H](OC[C@H]2O[C@@H](Oc3c(-c4ccc(O)c(O)c4)oc4cc(O)cc(O)c4c3=O)[C@H](O)[C@@H](O)[C@@H]2O)[C@H](O)[C@H](O)[C@H]1O | Streptococcus mutans | – | – | MIC, first 15 min, added: glucose 1% | – | initial rate of glycolytic pH drop | 0.037 pH units/min |

| Structure (SMILES) | organism | assay | test system | setting | how to read | measurement | value |
| --- | --- | --- | --- | --- | --- | --- | --- |
| CCN(CC)c1ccc2c(c1)oc(=O)c1c(Cl)cc(=O)oc12 | Mus musculus | gene silencing, high-content imaging | LDR reporter GFP cells | retest run 1 | – | maximal activity | 56% |
| CN1CCN(c2ncc(-c3ccc4nncc(Nc5cnccn5)c4c3)cn2)CC1 | Trypanosoma brucei | cell growth | – | – | – | EC50 | 3.5 ± 0.51 µM |
| Cc1ccc(NC(=O)c2c(C)nc3sc(C(=O)NC4CCCC4)c(N)c3c2-c2ccco2)c(C)c1 | Mus musculus | gene silencing, high-content imaging | LDR reporter GFP cells | retest run 2 | – | maximal activity | 61% |
| Cc1ccc(Cn2cc(C(=O)N/N=C/c3ccc([N+](=O)[O-])o3)c(=O)c3cc(Cl)ccc32)cc1 | Trypanosoma brucei brucei | resazurin viability | Lister 427 | – | relative to: CC50 HEK293 over EC50 parasite | selectivity ratio | 4.5 |
| O=C(O[C@H]1CN[C@H](C#Cc2cc3ncnc(Nc4ccc(OCc5cccc(F)c5)c(Cl)c4)c3s2)C1)N1CCOCC1 | Trypanosoma brucei | – | – | unit not given | relative to: pEC50 T. brucei minus pTC50 HepG2 | selectivity | 1.4 |
| COc1ccc(CN2C[C@H]3CC[C@@H]4[C@](C)(CO)[C@H](O)CC[C@@]4(C)[C@@H]3C[C@@H]2C2=CCOC2=O)cc1 | Human coronavirus 229E | cytopathic effect | MRC5 | 25 µM, corrected for cytotoxicity | – | inhibition | 3.8% |
| COc1cc2c(cc1NC(=O)c1ccc(C(C)(C)C)cc1)CCCCC2 | West Nile virus | viral replication | HEK293 | – | – | EC90 | 0.6 µM |
| N#Cc1sc2nc(-c3ccccc3)cc(C(F)(F)F)c2c1N | Mus musculus | gene silencing, high-content imaging | LDR reporter GFP cells | retest run 1 | – | maximal activity | 20% |
| CC(C)CN1C[C@H]2CC[C@@H]3[C@]4(C)COC(C)(C)O[C@@H]4CC[C@@]3(C)[C@@H]2C[C@@H]1C1=CCOC1=O | Human coronavirus 229E | cytopathic effect | MRC5 | 25 µM, corrected for cytotoxicity | – | inhibition | 32.8% |
| O=c1[nH]c(CCl)nc2scc(-c3cccc(F)c3)c12 | Trypanosoma brucei brucei | – | 449 Lister 427 bloodstream form | 24 h | relative to: EC50 HEK293 over EC50 T. brucei | selectivity index | 5 ± 1.6 |
| CCn1c(=O)c(-c2cc[nH]n2)cc2c(C)nc(N)nc21 | Enterovirus A71 | – | RD infected with EV71 | concentration not given | – | RAN mRNA and protein level | decreased |
| Nc1nc(Nc2ccc(S(N)(=O)=O)cc2)nn1C(=O)c1c(F)cccc1F | Trypanosoma brucei | cell growth | – | – | – | EC50 | 0.283 ± 0.044 µM |
| CC(=O)N[C@@H](CSC(=O)[C@]1([C@@H](O)C(C)C)NC(=O)[C@H](C)[C@@H]1O)C(=O)O | Mus musculus | gene silencing, high-content imaging | LDR reporter GFP cells | 30 h, retest, mean of two runs | – | Emax | 72% |
| CC(=Nc1ccc(N=Cc2cnccn2)cc1)N(C)C | Necator americanus | – | hamster (Mesocricetus auratus), infected | oral, 50 mg/kg single dose, 6 h | – | anthelmintic rate | 98.3 ± 1.7% |
| CC(=O)OC[C@@]1(C)[C@H]2CC[C@@H]3CN(Cc4ccc(C(C)(C)C)cc4)[C@@H](C4=CCOC4=O)C[C@H]3[C@]2(C)CC[C@H]1OC(C)=O | Human coronavirus 229E | cytopathic effect | MRC5 | 25 µM, corrected for cytotoxicity | – | inhibition | 82.8% |
| COC(=O)[C@H](Cc1ccc(O)cc1)NCc1cc2ccccc2nc1SC | Pseudomonas aeruginosa | – | – | 32 µg/mL, added: pentamidine 50 µM | relative to: control | growth | 91.3% |
| COc1ccccc1-c1cc(/C=C2\C(=O)Nc3ncc(Br)cc32)cc(Br)c1O | Trypanosoma brucei | – | – | unit not given | relative to: pEC50 T. brucei minus pTC50 HepG2 | selectivity | 1.4 |
| Cc1ccc(C(C)C)c(OC2=C(Cl)C(=O)c3ccccc3C2=O)c1 | Aspergillus niger | – | ITCC 7787 | 10 µg/mL | – | zone of inhibition | 15 mm |
| Cc1nc2[nH]c(=O)n(O)c(=O)c2s1 | Digitaria adscendens | – | – | 750 g/ha, 21 days, post-emergence, glasshouse pot | – | growth inhibition | 0% |
| CN[C@H](CC(C)C)C(=O)N[C@H]1C(=O)N[C@@H](CC(N)=O)C(=O)N[C@H]2C(=O)N[C@H]3C(=O)N[C@H](C(=O)N[C@H](C(=O)O)c4cc(O)cc(O)c4-c4cc3ccc4O)[C@H](O)c3ccc(c(Cl)c3)Oc3cc2cc(c3O[C@@H]2O[C@H](CO)[C@@H](O)[C@H](O)[C@H]2O[C@H]2C[C@](C)(N)[C@H](O)[C@H](C)O2)Oc2ccc(cc2Cl)[C@H]1O | Streptococcus pneumoniae | – | penicillin-resistant, 10 isolates | pH 8.5 | – | MIC50 | 0.5 µg/mL (≈ 0.345 µM) |
| CCCCN1C[C@H]2CC[C@@H]3[C@](C)(COC(C)=O)[C@H](OC(C)=O)CC[C@@]3(C)[C@@H]2C[C@@H]1C1=CCOC1=O | Human coronavirus 229E | cytopathic effect | MRC5 | 25 µM, corrected for cytotoxicity | – | inhibition | 60.7% |
| CS(=O)(=O)CCNCc1cc(-c2cc3c(Nc4ccc(OCc5cccc(F)c5)c(Cl)c4)ncnc3s2)cs1 | Trypanosoma brucei | – | – | unit not given | relative to: pEC50 T. brucei minus pTC50 HepG2 | selectivity | > 2 |
| O=C1C(Cl)=C(n2cncn2)C(=O)c2ccccc21 | Aspergillus niger | – | ITCC 7787 | 10 µg/mL | – | zone of inhibition | 16 mm |
| CC(C)n1ncc2c(C(=O)NCC3(C)CNC3)cc(C3CC3)nc21 | Enterovirus A71 | viral replication | Tainan/4643/1998 | 3000 nM | – | plaque reduction | 100% |

Excerpt of the above:
| Structure (SMILES) | organism | assay | test system | setting | how to read | measurement | value |
| --- | --- | --- | --- | --- | --- | --- | --- |
| CCCCN1C[C@H]2CC[C@@H]3[C@](C)(COC(C)=O)[C@H](OC(C)=O)CC[C@@]3(C)[C@@H]2C[C@@H]1C1=CCOC1=O | Human coronavirus 229E | cytopathic effect | MRC5 | 25 µM, corrected for cytotoxicity | – | inhibition | 60.7% |
| CS(=O)(=O)CCNCc1cc(-c2cc3c(Nc4ccc(OCc5cccc(F)c5)c(Cl)c4)ncnc3s2)cs1 | Trypanosoma brucei | – | – | unit not given | relative to: pEC50 T. brucei minus pTC50 HepG2 | selectivity | > 2 |
| O=C1C(Cl)=C(n2cncn2)C(=O)c2ccccc21 | Aspergillus niger | – | ITCC 7787 | 10 µg/mL | – | zone of inhibition | 16 mm |
| CC(C)n1ncc2c(C(=O)NCC3(C)CNC3)cc(C3CC3)nc21 | Enterovirus A71 | viral replication | Tainan/4643/1998 | 3000 nM | – | plaque reduction | 100% |
